# Published values pooled from the literature.
# Compare with care: the assays were run in different laboratories.
# WNK2: Serine/threonine-protein kinase WNK2 (WNK2, Homo sapiens, UniProt Q9Y3S1)
# Chain of UniProt Q9Y3S1 (whole entry, looked up): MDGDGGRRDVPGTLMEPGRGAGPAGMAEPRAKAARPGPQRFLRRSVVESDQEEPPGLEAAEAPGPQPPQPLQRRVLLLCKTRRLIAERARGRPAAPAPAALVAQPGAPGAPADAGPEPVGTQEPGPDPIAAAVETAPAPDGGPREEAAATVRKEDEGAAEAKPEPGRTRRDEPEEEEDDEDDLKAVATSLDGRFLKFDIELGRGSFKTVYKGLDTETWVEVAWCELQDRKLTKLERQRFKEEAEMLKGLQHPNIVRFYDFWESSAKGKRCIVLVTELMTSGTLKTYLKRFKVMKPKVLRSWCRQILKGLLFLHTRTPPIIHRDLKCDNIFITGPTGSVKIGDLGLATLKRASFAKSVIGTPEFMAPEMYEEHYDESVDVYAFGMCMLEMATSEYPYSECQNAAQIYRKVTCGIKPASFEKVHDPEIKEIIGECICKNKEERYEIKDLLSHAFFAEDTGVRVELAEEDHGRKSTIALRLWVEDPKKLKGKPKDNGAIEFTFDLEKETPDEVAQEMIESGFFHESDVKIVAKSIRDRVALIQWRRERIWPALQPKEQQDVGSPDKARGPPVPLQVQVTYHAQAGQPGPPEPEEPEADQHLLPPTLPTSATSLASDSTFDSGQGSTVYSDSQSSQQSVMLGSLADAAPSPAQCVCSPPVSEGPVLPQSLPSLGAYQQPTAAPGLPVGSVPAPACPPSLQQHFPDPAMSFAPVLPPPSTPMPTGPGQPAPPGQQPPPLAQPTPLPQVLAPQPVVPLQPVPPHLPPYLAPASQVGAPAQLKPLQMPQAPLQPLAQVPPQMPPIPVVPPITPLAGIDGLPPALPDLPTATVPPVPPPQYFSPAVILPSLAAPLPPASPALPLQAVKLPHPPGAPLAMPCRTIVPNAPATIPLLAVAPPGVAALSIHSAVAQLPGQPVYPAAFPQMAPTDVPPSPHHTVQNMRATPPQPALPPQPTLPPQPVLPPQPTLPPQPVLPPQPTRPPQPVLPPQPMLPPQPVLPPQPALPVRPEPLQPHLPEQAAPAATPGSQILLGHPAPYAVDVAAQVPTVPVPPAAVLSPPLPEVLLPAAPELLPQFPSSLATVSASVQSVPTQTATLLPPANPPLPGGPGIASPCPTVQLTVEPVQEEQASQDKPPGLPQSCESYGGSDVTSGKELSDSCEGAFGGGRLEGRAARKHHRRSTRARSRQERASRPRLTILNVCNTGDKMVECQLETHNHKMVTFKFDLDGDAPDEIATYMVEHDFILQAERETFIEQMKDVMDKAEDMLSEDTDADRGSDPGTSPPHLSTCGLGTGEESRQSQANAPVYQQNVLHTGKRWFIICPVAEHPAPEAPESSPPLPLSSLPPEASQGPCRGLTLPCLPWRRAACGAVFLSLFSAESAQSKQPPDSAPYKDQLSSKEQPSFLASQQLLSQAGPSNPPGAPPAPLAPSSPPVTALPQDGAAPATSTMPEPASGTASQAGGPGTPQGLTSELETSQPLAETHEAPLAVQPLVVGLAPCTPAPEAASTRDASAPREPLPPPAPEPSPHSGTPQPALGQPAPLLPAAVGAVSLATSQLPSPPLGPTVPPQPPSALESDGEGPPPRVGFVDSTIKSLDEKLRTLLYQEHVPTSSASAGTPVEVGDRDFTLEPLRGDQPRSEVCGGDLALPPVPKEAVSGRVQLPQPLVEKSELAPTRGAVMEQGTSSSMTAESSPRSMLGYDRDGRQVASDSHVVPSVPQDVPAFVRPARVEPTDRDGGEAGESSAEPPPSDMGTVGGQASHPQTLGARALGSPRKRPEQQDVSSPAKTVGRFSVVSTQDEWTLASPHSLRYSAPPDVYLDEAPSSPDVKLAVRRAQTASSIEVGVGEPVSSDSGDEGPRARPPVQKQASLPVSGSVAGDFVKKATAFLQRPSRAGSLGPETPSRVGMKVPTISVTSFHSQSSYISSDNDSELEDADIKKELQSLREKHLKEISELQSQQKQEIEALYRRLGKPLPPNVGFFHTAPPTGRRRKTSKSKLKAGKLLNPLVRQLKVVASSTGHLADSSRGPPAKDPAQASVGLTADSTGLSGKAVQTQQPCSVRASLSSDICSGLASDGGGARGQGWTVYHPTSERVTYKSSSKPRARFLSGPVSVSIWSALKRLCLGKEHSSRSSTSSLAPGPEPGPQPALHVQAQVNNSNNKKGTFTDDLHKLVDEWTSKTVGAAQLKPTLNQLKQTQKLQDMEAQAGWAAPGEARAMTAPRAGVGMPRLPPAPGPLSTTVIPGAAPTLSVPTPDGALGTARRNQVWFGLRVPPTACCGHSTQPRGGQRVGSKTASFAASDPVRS
# Chain of UniProt Q9UK32 (whole entry, looked up): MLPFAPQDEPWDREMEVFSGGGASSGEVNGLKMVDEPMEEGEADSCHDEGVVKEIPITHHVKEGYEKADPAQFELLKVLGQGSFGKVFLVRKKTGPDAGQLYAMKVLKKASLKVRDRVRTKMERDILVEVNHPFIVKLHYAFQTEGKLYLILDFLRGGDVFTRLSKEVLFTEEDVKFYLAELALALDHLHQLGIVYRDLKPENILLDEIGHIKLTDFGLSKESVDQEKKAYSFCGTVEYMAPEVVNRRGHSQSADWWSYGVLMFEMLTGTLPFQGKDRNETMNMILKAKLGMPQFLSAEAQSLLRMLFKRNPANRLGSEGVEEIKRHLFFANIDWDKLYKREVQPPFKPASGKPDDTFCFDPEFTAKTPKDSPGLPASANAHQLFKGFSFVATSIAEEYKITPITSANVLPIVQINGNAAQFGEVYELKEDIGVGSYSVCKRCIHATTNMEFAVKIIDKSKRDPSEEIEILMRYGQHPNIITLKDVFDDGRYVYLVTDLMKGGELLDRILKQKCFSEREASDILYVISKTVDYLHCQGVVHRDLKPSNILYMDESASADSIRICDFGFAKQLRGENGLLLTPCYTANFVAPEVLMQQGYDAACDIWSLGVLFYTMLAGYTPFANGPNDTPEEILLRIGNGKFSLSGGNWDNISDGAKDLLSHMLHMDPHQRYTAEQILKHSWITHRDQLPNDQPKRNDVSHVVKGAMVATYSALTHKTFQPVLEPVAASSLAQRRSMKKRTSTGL
# Chain of UniProt Q9UQB9 (whole entry, looked up): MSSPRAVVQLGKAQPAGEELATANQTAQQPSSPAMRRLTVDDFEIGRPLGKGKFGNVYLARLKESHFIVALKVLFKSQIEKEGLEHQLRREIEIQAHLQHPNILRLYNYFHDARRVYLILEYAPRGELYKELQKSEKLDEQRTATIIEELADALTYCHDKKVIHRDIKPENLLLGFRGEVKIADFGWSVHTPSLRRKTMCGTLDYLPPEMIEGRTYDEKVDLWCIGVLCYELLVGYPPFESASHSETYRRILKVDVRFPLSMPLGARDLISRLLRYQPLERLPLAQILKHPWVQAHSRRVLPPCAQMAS
Compound,target or system,assay,test system,conditions,endpoint,result
Cc1ccc(C(CS(=O)(=O)c2ccccc2)=NNC2=NC(=O)C(=NNc3ccc([N+](=O)[O-])cc3)S2)cc1,SK-MEL-23,"cell growth or viability, MTT",,"25 µM, 48 h",viability,49.4%
COc1ccc(NC(=O)c2c(Nc3ccccc3)sc(C#N)c2NC(=O)CNc2ccc(O)cc2)cc1,HCT-116,"cell growth or viability, SRB",,"10 µM, 48 h",viability,69.4%
Nc1ncnc2occ(-c3ccc(NC(=O)Nc4cc(C(F)(F)F)ccc4F)cc3)c12,"Serine/threonine-protein kinase Nek10 (NEK10, Homo sapiens, UniProt Q6ZWH5)","cell-free assay, inhibitor",,20 µM,remaining signal,3.2%
COc1ccc(NC(=O)c2c(Nc3ccccc3)sc(C#N)c2NC(=O)CNc2ccc(C)cc2)cc1,HCT-116,"cell growth or viability, SRB",,"10 µM, 48 h",viability,68.4%
C=CC(=O)N1CCC(COCC(=O)N2CCN(c3nc(-c4cnc(N)nc4C(F)F)nc(N4CCOC[C@@H]4C)n3)CC2)CC1,"Aurora kinase C (AURKC, Homo sapiens, UniProt Q9UQB9)","binding, competition with immobilised ligand",,1 µM,remaining binding,93%
CNc1ncc2c(/C=C/C(=O)N3CCC(OC)CC3)nn(Cc3cccc(C(F)(F)F)c3)c2n1,WNK2,"enzyme activity, inhibitor, radiometric",,1 µM,remaining activity,100%
Cc1cccc(N(O)N=Nc2ccc(S(=O)(=O)Nc3cc(C)on3)cc2)c1,,"DPPH scavenging, absorbance",,120 µg/mL,inhibition,32.4%
C=CCNC(=S)NNC(=O)COc1ccc2c(C)c(CC)c(=O)oc2c1C,MDA-MB-231,"cell growth or viability, MTT",,31.25 µg/mL,viability,99.9%
Cc1cc([C@@H](C)Nc2ccccc2C(=O)O)c2nc(N3CCC(F)(F)CC3)c(C#N)c(=O)n2c1,"Dual specificity tyrosine-phosphorylation-regulated kinase 1B (DYRK1B, Homo sapiens, UniProt Q9Y463)","binding, competition with immobilised ligand",,1 µM,remaining binding,100%
COc1ccc(NC(=O)c2c(Nc3ccccc3)sc(C#N)c2NC(=O)CNc2ccccc2Cl)cc1,HCT-116,"cell growth or viability, SRB",,"100 µM, 48 h",viability,80.3%
CCN(O)N=Nc1ccc(S(=O)(=O)Nc2onc(C)c2C)cc1,,"DPPH scavenging, absorbance",,240 µg/mL,inhibition,24.4%
CC(=NNC(N)=S)c1ccc(Nc2nnc(-c3ccc(Cl)cc3)c3ccccc23)cc1,HepG2,"cell growth or viability, MTT",,"0.312 µM, 24 h",viability,8.46%
O=c1nc(N2CCN(CC3CCCCC3)CC2)sc2c([N+](=O)[O-])cc(C(F)(F)F)cc12,,,"CD-1 mouse, lung","intravenous, 10 mg/kg, 4 h",concentration,1170 ng/mL
CCc1c(C)c2ccc(OCc3nnc(S)n3N)c(C)c2oc1=O,MDA-MB-231,"cell growth or viability, MTT",,250 µg/mL,viability,2.9%
COc1ccc(NC(=O)c2c(Nc3ccccc3)sc(C#N)c2NC(=O)CNc2ccc(OC)c(OC)c2)cc1,HCT-116,"cell growth or viability, SRB",,"1 nM, 48 h",viability,98.1%
C1=C/COCc2cc(ccc2OCCN2CCCC2)Nc2nccc(n2)-c2cccc(c2)COC/1,"Ribosomal protein S6 kinase alpha-6, C-terminal kinase domain (RPS6KA6, Homo sapiens, UniProt Q9UK32)",cell-free assay,,0.1 µM,remaining signal,98%
COc1cccc(-c2n[nH]c(SCc3ccccn3)n2)c1OC,,,"female Sprague-Dawley rat, plasma","oral, 30 mg/kg, 2 h, single dose",concentration,7800 ng/mL
CC(=O)Nc1cccc(-n2c(=O)n(C3CC3)c(=O)c3c(Nc4ccc(I)cc4F)n(C)c(=O)c(C)c32)c1,Calu-6,"cell growth or viability, resazurin",,"1.56 nM, 72 h",viability,87.1%
COc1ccc(NC(=O)c2c(Nc3ccccc3)sc(C(=O)NN=Cc3ccc(OC)c(O)c3)c2NC(C)=O)cc1,HCT-116,"cell growth or viability, SRB",,"0.1 µM, 48 h",viability,61.4%
O=C(Nc1ccc(Oc2nnc(-c3ccc(Cl)cc3)c3ccccc23)cc1)c1cccc([N+](=O)[O-])c1,HepG2,"cell growth or viability, MTT",,"0.625 µM, 24 h",viability,67.7%
CCCCC(=O)Nc1ccc(-c2ccc3ncn(CCC)c(=O)c3c2)cn1,WNK2,"binding, competition with immobilised ligand",,0.5 µM,remaining binding,58%
Cc1c(Cc2ccccc2)c(=O)oc2c(C)c(OCC(=O)NN=Cc3ccccc3)ccc12,MDA-MB-231,"cell growth or viability, MTT",,500 µg/mL,viability,4.28%
CC(C)(C)c1nc(-c2cccc(NS(=O)(=O)c3c(F)cccc3F)c2F)c(-c2ccnc(N)n2)s1,SK-MEL-23,"cell growth or viability, MTT",,"0.4 µM, 48 h",viability,68.5%
Cc1c(Cc2ccccc2)c(=O)oc2c(C)c(OCC(=O)NN=Cc3ccco3)ccc12,MDA-MB-231,"cell growth or viability, MTT",,62.5 µg/mL,viability,9.88%
COc1ccc(NC(=O)c2c(Nc3ccccc3)sc(C#N)c2NC(=O)CNc2ccccc2[N+](=O)[O-])cc1,HCT-116,"cell growth or viability, SRB",,"1 nM, 48 h",viability,102%
O=C(Nc1ccc(Oc2nnc(-c3ccc(Cl)cc3)c3ccccc23)cc1)c1ccccc1,HepG2,"cell growth or viability, MTT",,"78 nM, 24 h",viability,96%
Cc1ccc(C(CS(=O)(=O)c2ccccc2)=NNc2nc(C)c(N=Nc3cccc(C)c3)s2)cc1,SK-MEL-23,"cell growth or viability, MTT",,"100 µM, 48 h",viability,37%
COc1ccc(NC(=O)c2c(Nc3ccccc3)sc(C(=O)NN=Cc3ccc(Br)cc3)c2NC(C)=O)cc1,HCT-116,"cell growth or viability, SRB",,"1 nM, 48 h",viability,99.7%
S=C(Nc1ccccc1)Nc1ccc(Oc2nnc(-c3ccc(Cl)cc3)c3ccccc23)cc1,HepG2,"cell growth or viability, MTT",,"0.625 µM, 24 h",viability,96.8%
COc1cc(-c2cncc3c2CN(C)Cc2cc(N4CCNCC4)ccc2-3)cc(OC)c1OC,WNK2,"enzyme activity, inhibitor",,1 µM,remaining activity,105%
O=C(Nc1ccccc1)Nc1ccc(Oc2nnc(-c3ccc(Cl)cc3)c3ccccc23)cc1,HepG2,"cell growth or viability, MTT",,"2.5 µM, 24 h",viability,5.21%
CCc1c(C)c2ccc(OCC=Cc3ccccc3)c(C)c2oc1=O,MDA-MB-231,"cell growth or viability, MTT",,62.5 µg/mL,viability,99.5%
CC(=O)Nc1ccc(Oc2nnc(-c3ccc(Cl)cc3)c3ccccc23)cc1,HepG2,"cell growth or viability, MTT",,"0.156 µM, 24 h",viability,83.9%
CCNC(=S)NNC(=O)COc1ccc2c(C)c(CC)c(=O)oc2c1C,MDA-MB-231,"cell growth or viability, MTT",,31.25 µg/mL,viability,96.7%

# For quick reference, copied from above:
Compound,target or system,assay,test system,conditions,endpoint,result
COc1ccc(NC(=O)c2c(Nc3ccccc3)sc(C#N)c2NC(=O)CNc2ccc(O)cc2)cc1,HCT-116,"cell growth or viability, SRB",,"10 µM, 48 h",viability,69.4%
Nc1ncnc2occ(-c3ccc(NC(=O)Nc4cc(C(F)(F)F)ccc4F)cc3)c12,"Serine/threonine-protein kinase Nek10 (NEK10, Homo sapiens, UniProt Q6ZWH5)","cell-free assay, inhibitor",,20 µM,remaining signal,3.2%
COc1ccc(NC(=O)c2c(Nc3ccccc3)sc(C#N)c2NC(=O)CNc2ccc(C)cc2)cc1,HCT-116,"cell growth or viability, SRB",,"10 µM, 48 h",viability,68.4%
